Measured values collected from several papers.
Numbered parts are unrelated; each lists some results of a single study. Positions count from the first letter of the parent shown.

Study 1
Target: Histone acetyltransferase KAT6A, winged helix 1, GST fusion (KAT6A, Homo sapiens, UniProt Q92794, residues 1-85)
Technique: protein binding microarray
Molecule type: double-stranded DNA, one strand shown
Sample: in vitro
Tested at: not given
Notes: 8-mer, flanks averaged, mean of 2 arrays, mostly near background
Relative to: not given
Direction: higher = stronger binding
Construct (chain): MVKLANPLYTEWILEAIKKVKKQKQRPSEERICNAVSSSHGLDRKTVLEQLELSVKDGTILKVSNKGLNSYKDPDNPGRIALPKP
Strand	E-score
GACTGTCA	0.0373
AAGATGAC	-0.184
AGAAACGC	0.149
ATCGAAAT	-0.0319
CCCACCAC	-0.145
ACGTACTG	-0.153
ACGTTTGA	-0.0411
ATGTTCCC	0.0055
GCGGATCC	0.316
GGACCTCC	0.0927
GGGGTAGA	-0.133
CCTTTGTA	-0.21
CAATCTCA	-0.0917
AAACCCGT	0.31
ATGGGCCG	0.199
CTATCTAC	-0.141
AATCTTGT	-0.257

Study 2
Target: Ras GTPase-activating protein-binding protein 1, full length (G3BP1, Homo sapiens, UniProt Q13283)
UniProt Q13283, sequence (whole entry, looked up): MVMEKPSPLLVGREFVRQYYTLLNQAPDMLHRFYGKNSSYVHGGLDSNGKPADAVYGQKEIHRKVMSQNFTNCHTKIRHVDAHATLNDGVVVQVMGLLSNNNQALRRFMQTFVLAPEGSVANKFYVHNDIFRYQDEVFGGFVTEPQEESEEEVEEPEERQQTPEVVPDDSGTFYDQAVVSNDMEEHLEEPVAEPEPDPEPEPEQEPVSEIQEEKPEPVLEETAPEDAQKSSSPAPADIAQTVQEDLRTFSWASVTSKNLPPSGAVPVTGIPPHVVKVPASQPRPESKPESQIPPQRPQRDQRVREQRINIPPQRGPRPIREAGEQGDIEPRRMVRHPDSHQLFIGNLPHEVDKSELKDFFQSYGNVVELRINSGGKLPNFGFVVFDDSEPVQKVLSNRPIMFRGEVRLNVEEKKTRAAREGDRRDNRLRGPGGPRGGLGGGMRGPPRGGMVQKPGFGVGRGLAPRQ
Technique: RNA Bind-n-Seq
Molecule type: RNA
Sample: in vitro
Tested at: 200 nM
Notes: whole 134-nt RNA, ends assumed
With: 150 mM KCl
Relative to: input library
Direction: higher = stronger binding
All sequences stand within: GGGAGUUCUACAGUCCGACGAUC … UGGAAUUCUCGGGUGUCAAGG
Strand	log2 enrichment
GCAGGAAGUAAAAACAGAUGGAAAUGCUUCGGAUAGUGGCAGGGGUGGGGGUUGCUAAGGAAAGGGUGGGAUGGGAGUGGGUAAAGAGUU	1.51
GUCCUGUGCUACACAUCGUAUGUACCGAAUCGGUUUUUGGUUUUUUUGGAAAAAAAGGAAAGUAUUAUGUUACGCCGUUCGGAUCUGCAC	-1.15
GCAGGAAAUAAAAACAAAUGGAAAUGCUUCGGAUAGUGGCAGGGGUGGGGGUUGCUAAGGAAAGGGUGGGAUGGGAGUGGGUAAAGAGUU	0.716
UCAAGUCCUGUGCUACACAUCGUAUGUACCGAAUCGGUUUGGGUUUGGUUUGGGAAAGUAUUAUGUUACGCCGUUCGGAUCUGCACUUCC	-0.651
UAGUCACCUACUGCCACCUUCGAAAAACACGGAGAGCACCUACCCAGAGGAGAAGGUAGAUUUGGAGUAAGCCGCCGUCGACAUAAUUCC	0.378
UGGGAGGUGGAUUUUGUUUAUUUUUUUAGCUCAUUUCCAGGGGUGGGAAGUUUUUUUUAAUAUGUGUCAUGAAUAAAGUUGUUUUUGAAA	0.335
GCAGGAAGUAAAAACAAAUGGAAAUGCUUCGGAUAGUGGCAGGGGUGGGGGUUGCUAAGGAAAGGGUGGGUUGGGAGUGGGUAAAGAGUU	0.86
UCCUGUGCUACACAUCGUAUGUACCGAAUCGGGCCCCCCGGGCCCCCCGGGCCCCCCGGGAAAGUAUUAUGUUACGCCGUUCGGAUCUGC	-0.244
AGUCCUGUGCUACACAUCGUAUGUACCGAAUCGGGGUUUUGGGGUUUUGGGGUUUUGGAAAGUAUUAUGUUACGCCGUUCGGAUCUGCAC	-0.0459

Study 3
Target: CCND2, cyclin fold, Cln2 fusion (human)
Technique: yeast growth competition, sequencing
Sample: yeast
Notes: weak parent motif
Relative to: not given
Direction: higher = stronger binding
Parent: PKN2 docking peptide (human); VSAVQKLDFSDTM; partner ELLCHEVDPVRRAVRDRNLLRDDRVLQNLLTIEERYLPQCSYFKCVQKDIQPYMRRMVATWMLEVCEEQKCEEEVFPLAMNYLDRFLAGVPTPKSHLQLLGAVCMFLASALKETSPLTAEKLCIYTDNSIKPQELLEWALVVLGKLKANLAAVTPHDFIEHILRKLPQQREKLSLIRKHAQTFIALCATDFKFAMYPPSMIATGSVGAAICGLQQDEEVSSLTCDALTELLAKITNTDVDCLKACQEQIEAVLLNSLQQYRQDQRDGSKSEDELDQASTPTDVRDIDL
Substitution	normalised enrichment score
VSAVQKLDCSDTM [F9C]	-0.122
VSAVQKLDFSDVM [T12V]	0.509
VSAVQKLDDSDTM [F9D]	0.0937
VSAVQKLDFHDTM [S10H]	0.449
VSAVQKWDFSDTM [L7W]	0.233
VSAVQKLDFNDTM [S10N]	0.622
VSAVRKLDFSDTM [Q5R]	2.7
VSAVQDLDFSDTM [K6D]	0.0828
VSAVQKADFSDTM [L7A]	0.133
VSAVQKLDFSDTG [M13G]	0.698
VSAVQNLDFSDTM [K6N]	0.123
VSAVQKKDFSDTM [L7K]	0.153
VSAVQKLDRSDTM [F9R]	0.371
VSAVQKQDFSDTM [L7Q]	-0.156
VSAVQKLTFSDTM [D8T]	0.204
VSAVQKLDLSDTM [F9L]	0.161

Study 4
Target: NFIL3, bZIP domain (human)
Technique: DHFR protein complementation
Sample: yeast
Notes: single substitutions, most at no-binding floor
Relative to: wild-type JUN-FOS pair
Direction: higher = stronger binding
Parent: JUN, bZIP domain (human); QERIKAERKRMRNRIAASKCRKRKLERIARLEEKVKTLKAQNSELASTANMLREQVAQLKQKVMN; partner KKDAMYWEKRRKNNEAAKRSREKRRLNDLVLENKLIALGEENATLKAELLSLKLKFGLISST
Substitution	binding fitness [natural log]
V56S	-1.48
A40P	-1.5
L52F	-1.4
A29G	-1.44
A29L	-1.43
A49C	-1.42
M51V	-1.34
M51S	-1.39
K34L	-1.5
S47E	-1.4
R53L	-1.48
K34F	-1.63
S43T	-1.35
L52H	-1.52
K36F	-1.46
E44S	-1.54
E33P	-1.49

A few entries again (study 4):
Substitution	binding fitness [natural log]
K34L	-1.5
S47E	-1.4
R53L	-1.48
K34F	-1.63
S43T	-1.35
L52H	-1.52
K36F	-1.46
E44S	-1.54
